Measurements pooled from the literature.
Lines come from different studies, so protocols differ. ± marks the error that the study gave.

CCCCC1(CCCC)CN(c2ccccc2)c2cc(SC)c(OCC(=O)N[C@@H](C(=O)NCC(=O)O)c3ccccc3)cc2S(=O)(=O)C1  AUC(0-t) (human, plasma; oral, 10 mg once daily, day 14, geometric mean): 1.36 ng·h/mL
CN(C)CCCN1c2ccccc2CCc2ccccc21  EC20 (cytochrome c release, ELISA; BALB/cByJ female mouse liver mitochondria; 30 min; baseline: alamethicin maximal release): > 400 µM
COC(=O)c1ccccc1-c1c2ccc(=O)cc-2oc2c1ccc1cccc(N(C)C)c12  absorption maximum (aqueous NaOH 10% DMSO; pH 12.1, conjugate base): 530 nm
O=C([O-])CN1CCN(CC(=O)[O-])CCN(CC(=O)[O-])C(Cc2ccc([N+](=O)[O-])cc2)CN(CC(=O)[O-])CC1.[67Ga+3] (stereo not drawn)  intact radiolabelled complex (RP-TLC; murine plasma; 24 h, 37 °C, 5% CO2): 95.9 ± 0.1%
CN1CC[C@H](c2c(O)cc(O)c3c(=O)cc(/C=C/c4c(Cl)cccc4Cl)oc23)[C@H](O)C1  AUC(0-inf) (male BALB/c mouse, plasma; oral, 50 mg/kg): 2570 ng·h/mL
CNCc1ccc(-c2[nH]c3cc(F)cc4c3c2CCNC4=O)cc1  AUC(0-t) (human, fasted, plasma; oral, 600 mg, 24 h, single dose, median): 7050 ng·h/mL
Cc1nc2cccc(OCC(C)(C)C(=O)NC(C)C)c2c(N)c1C(=O)O  Tmax (male Sprague-Dawley rat, plasma; dietary, 30 mg/kg/day, day 7): 3 h
O=c1ccc2ccccc2o1  EC20 (mitochondrial swelling; BALB/cByJ female mouse liver mitochondria; 30 min, together with: succinate + rotenone; baseline: CaCl2 maximal swelling): > 200 µM
S=C(NCCCc1c[nH]cn1)NCCCN(Cc1ccc(Cl)c(Cl)c1)c1ccc(Br)cn1  concentration (male C57BL/6 mouse, plasma; intraperitoneal, 30 mg/kg, 24 h): 10.2 ng/mL
COc1cccc(-c2ccc(NC(=O)C3=C(C(=O)O)CCC3)c(F)c2)c1  AUC(0-24h) (human, male, fasted, plasma; oral, 10 mg, single dose, geometric mean): 19700 ng·h/mL
CC(=O)N[C@@H](Cc1ccccc1)C(=O)N[C@H]1CCCNC(=O)[C@H](CCCNC(=N)N)NC(=O)[C@H](Cc2c[nH]c3ccccc23)NC(=O)[C@@H](CC2CCCCC2)NC(=O)[C@@H]2CCCN2C1=O  elimination half-life (two-compartment model; C57BL/6J mouse, plasma; 1 mg/kg single dose): ~20 min
CCN(CC)CC#CCOC(=O)C(O)(c1ccccc1)C1CCCCC1 (stereo not drawn)  EC20 (cytochrome c release, ELISA; BALB/cByJ female mouse liver mitochondria; 30 min; baseline: alamethicin maximal release): > 400 µM
CNC(=O)c1ccc(-c2cnc3ncc(Cc4ccc5ncccc5c4)n3n2)cc1F  Vz/F (geometric mean) (human, severe hepatic impairment (Child-Pugh C), plasma; oral, 200 mg single dose): 227 L
CSc1cc(Oc2ccnc3[nH]c(=O)cnc23)ccc1NC(=O)Nc1cc(C(C)(C)C)nn1-c1ccccc1  tumour concentration (female NSG and nude mice, tumour; oral, 20 mg/kg, 1 h after last dose, end of therapy): 6.5 to 10 µM
CCCC[C@H](NC(C)=O)C(=O)N[C@H]1CCC(=O)NC[C@@H](C(=O)N[C@@H](Cc2c[nH]c3ccccc23)C(N)=O)NC(=O)[C@H](CCCNC(=N)N)NC(=O)[C@@H](Cc2ccccc2)NC(=O)[C@H](Cc2c[nH]cn2)NC1=O  Tmax (beagle dog, female, plasma; subcutaneous, 1.5 mg/kg daily, day 14): 1 h

Excerpt of the above:
O=C([O-])CN1CCN(CC(=O)[O-])CCN(CC(=O)[O-])C(Cc2ccc([N+](=O)[O-])cc2)CN(CC(=O)[O-])CC1.[67Ga+3] (stereo not drawn)  intact radiolabelled complex (RP-TLC; murine plasma; 24 h, 37 °C, 5% CO2): 95.9 ± 0.1%
